# Measurements from different studies.
# Each line is one published result; not all experiments were run side by side. ± marks the error that the study gave.
SMILES,assay,system,setting,endpoint,value
CC(C)C[C@H](NC(=O)[C@H](Cc1ccc(O)cc1)NC(=O)[C@H](C)NC(=O)[C@@H](NC(=O)[C@H](CC(C)C)NC(=O)[C@H](C)NC(=O)[C@H](C)NC(=O)[C@H](CCCCN)NC(=O)CNC(=O)[C@@H](NC(=O)[C@H](Cc1c[nH]cn1)NC(=O)[C@H](CCCCN)NC(=O)CNC(=O)[C@@H](NC(=O)[C@H](Cc1c[nH]cn1)NC(=O)[C@@H](NC(=O)[C@H](C)NC(=O)[C@H](CCCCN)NC(=O)[C@H](CCCCN)NC(=O)[C@H](Cc1ccccc1)NC(=O)[C@H](Cc1c[nH]c2ccccc12)NC(=O)[C@H](CCCCN)NC(=O)CNC(=O)[C@H](Cc1c[nH]c2ccccc12)NC(=O)[C@@H](N)CCCNC(=N)N)[C@@H](C)O)C(C)C)C(C)C)[C@@H](C)O)C(N)=O,,"zebrafish embryos 4 hpf, E3 medium",24 h,chronic toxic concentration,5 µM
O=C1NC2(CC2)COc2ncc(F)cc2[C@H]2COCCN2c2ccn3ncc1c3n2,,"Sprague-Dawley rat, female, serum","oral, 5 mg/kg/day, 4 weeks daily, end of treatment",creatine kinase activity,465 ± 133 U/L
CSCC[C@H](NC(=O)CNC(=O)[C@H](CCCCN)NC(=O)[C@H](CC(C)C)NC(=O)[C@@H]1CCCN1C(=O)[C@H](CO)NC(=O)[C@H](Cc1c[nH]cn1)NC(=O)[C@H](Cc1c[nH]c2ccccc12)NC(=O)[C@H](CCCNC(=N)N)NC(=O)[C@H](CC(C)C)NC(=O)[C@H](CCCNC(=N)N)NC(=O)[C@H](Cc1c[nH]c2ccccc12)NC(=O)[C@H](CS)NC(=O)CCCCCNC(=O)CN1CCN(CC(=O)O)CCN(CC(=O)O)CCN(CC(=O)O)CC1)C(=O)O [copper-64 labelled],PET imaging,"BALB/c nude mice, kidney","intravenous, dose not given, 30 h, Huh-7 tumour-bearing",tissue uptake,4.14 ± 0.78 %ID/g
CC(=O)c1c(C)c2cnc(Nc3ccc(N4CCNCC4)cn3)nc2n(C2CCCC2)c1=O,,"C57BL/6 mice, blood","25 mg/kg, P25, dosed P10 to P24",red blood cell count,7.5 ± 0.2 10¹²/liter
CC[C@H](C)[C@H](NC(=O)[C@H](CCCCN)NC(=O)CNC(=O)[C@H](CC(C)C)NC(=O)[C@H](Cc1ccccc1)NC(=O)[C@H](CCCCN)NC(=O)[C@H](CO)NC(=O)[C@H](Cc1ccccc1)NC(=O)[C@H](Cc1c[nH]c2ccccc12)NC(=O)[C@H](CCC(N)=O)NC(=O)[C@@H](NC(=O)[C@H](Cc1ccccc1)NC(=O)CCCCCNC(=O)CN1CCN(CC(=O)O)CCN(CC(=O)O)CCN(CC(=O)O)CC1)C(C)C)C(=O)N[C@@H](CCC(=O)O)C(=O)N1CCC[C@H]1C(=O)N[C@@H](CC(=O)O)C(=O)N[C@H](C(=O)N[C@@H](CO)C(=O)N[C@@H](CCC(N)=O)C(=O)N[C@H](C(=O)N[C@@H](CCC(N)=O)C(=O)N[C@@H](CC(=O)O)C(=O)N1CCC[C@H]1C(=O)N[C@@H](CC(N)=O)C(=O)N[C@@H](CC(=O)O)C(=O)N[C@@H](CCC(N)=O)C(=O)N[C@@H](Cc1ccc(O)cc1)C(=O)N[C@@H](CCC(=O)O)C(=O)N1CCC[C@H]1C(=O)N[C@@H](Cc1ccccc1)C(=O)O)C(C)C)C(C)C [copper-64 labelled],dynamic PET,"mouse, CT26 tumour, checkpoint inhibitor-treated, tumour","intravenous, 100 µCi/mouse, 2820 s",SUVmean,4.63 SUV
N#[11C]c1ccc(-c2csc(NN=C3CCCC3)n2)cc1,,"C57BL/6 mice, male, pancreas","intravenous, 3 MBq, 5 min",radioactivity uptake,3.97 ± 1.1 %ID/g
Cc1ccc(C(C)C)cc1.F[P-](F)(F)(F)(F)F.[Cl][Os+]1[N]2C=CC=c3ccc4c(c32)[N]1C=CC=4,"shake-flask, ICP-MS",,,logP,0.29 ± 0.01
CC[C@H](C)[C@H](NC(=O)[C@H](C)NC(=O)[C@H](CCCCN)NC(=O)[C@H](CC(C)C)NC(=O)[C@@H](N)Cc1ccccc1)C(=O)N[C@@H](CCCCN)C(=O)N[C@@H](CCCCN)C(=O)N[C@@H](Cc1ccccc1)C(=O)NCC(=O)N[C@@H](CCCCN)C(=O)N[C@@H](CCC(=O)O)C(=O)N[C@@H](Cc1ccccc1)C(=O)N[C@@H](CCCCN)C(=O)N[C@@H](CCCCN)C(=O)N[C@H](C(=O)NCC(=O)N[C@@H](C)C(=O)N[C@@H](CCCCN)C(=O)N[C@@H](CC(C)C)C(=O)N[C@@H](CCCCN)C(=O)O)[C@@H](C)CC,,human red blood cells,"2 mg/L, 1 h, mean of replicates",hemolysis,0.551%
CCCCCCCCCCCCCC(=O)N[C@H](CCN)C(=O)N[C@@H]1C(=O)N[C@@H](CCN)C(=O)N[C@@H](CC(C)C)C(=O)N[C@@H](CCN)C(=O)N[C@H](Cc2ccccc2)C(=O)N[C@@H](CC(C)C)C(=O)N[C@@H](CCN)C(=O)N[C@H](CCN)C(=O)N[C@@H](C(C)C)C(=O)N[C@@H](CC(=O)O)C(=O)O[C@@H]1C,,rat,"intravenous, 5 mg/kg",AUC extrapolated percentage,0.81 ± 0.42%
CN[C@H](CC(C)C)C(=O)N[C@H]1C(=O)N[C@@H](CC(N)=O)C(=O)N[C@H]2C(=N)N[C@H]3C(=O)N[C@H](C(=O)N[C@H](C(=O)NCCC[N+](C)(C)C)c4cc(O)cc(O)c4-c4cc3ccc4O)[C@H](O)c3ccc(c(Cl)c3)Oc3cc2cc(c3O[C@@H]2O[C@H](CO)[C@@H](O)[C@H](O)[C@H]2O[C@H]2C[C@](C)(NCc3ccc(-c4ccc(Cl)cc4)cc3)[C@H](O)[C@H](C)O2)Oc2ccc(cc2Cl)[C@H]1O,,mouse,,MTD,≥ 50 mg/kg
CCCCCCCCCCCCCCCC(=O)N[C@@H](CCC(=O)NCCOCCOCCC(=O)NCCOCCOCCC(=O)NCCCC[C@H](NC(=O)[C@H](CC(=O)O)NC(=O)[C@H](CC(C)C)NC(=O)[C@H](Cc1ccc(O)cc1)NC(=O)[C@H](CCCCN)NC(=O)[C@H](CO)NC(=O)[C@H](Cc1ccc(O)cc1)NC(=O)[C@H](CC(=O)O)NC(=O)[C@H](CO)NC(=O)[C@@H](NC(=O)[C@H](Cc1ccccc1)NC(=O)[C@@H](NC(=O)CNC(=O)[C@H](CCC(N)=O)NC(=O)[C@@H](CO)NC(=O)[C@@H](N)Cc1c[nH]cn1)[C@@H](C)O)[C@@H](C)O)C(=O)N[C@@H](CCCNC(=N)N)C(=O)N[C@@H](CCCNC(=N)N)C(=O)N[C@@H](C)C(=O)N[C@@H](CCC(N)=O)C(=O)N[C@@H](CC(=O)O)C(=O)N[C@@H](Cc1ccccc1)C(=O)N[C@H](C(=O)N[C@@H](CCC(N)=O)C(=O)N[C@@H](Cc1c[nH]c2ccccc12)C(=O)N[C@@H](CC(C)C)C(=O)N[C@@H](CC(C)C)C(=O)N[C@@H](CC(N)=O)C(=O)N[C@H](C(=O)NCC(=O)NCC(=O)N1CCC[C@H]1C(=O)N[C@@H](CO)C(=O)N[C@@H](CO)C(=O)NCC(=O)N[C@@H](C)C(=O)N1CCC[C@H]1C(=O)N1CCC[C@H]1C(=O)N1CCC[C@H]1C(=O)N[C@@H](CO)C(N)=O)[C@@H](C)O)C(C)C)C(=O)O,item: AST,"rhesus monkey, female","subcutaneous, 20 µg/kg once daily, 28 days",serum enzyme activity,37.1 ± 5.9 U/L
COC(=O)[C@H]1[C@@H](c2ccc(Cl)c(Cl)c2)C[C@@H]2CC[C@H]1N2CCCc1ccc2cc3ccccc3cc2c1,fluorometric titration,,"1 µM, 10% DMSO",pKa,6.2

# Repeated from above:
SMILES,assay,system,setting,endpoint,value
CCCCCCCCCCCCCCCC(=O)N[C@@H](CCC(=O)NCCOCCOCCC(=O)NCCOCCOCCC(=O)NCCCC[C@H](NC(=O)[C@H](CC(=O)O)NC(=O)[C@H](CC(C)C)NC(=O)[C@H](Cc1ccc(O)cc1)NC(=O)[C@H](CCCCN)NC(=O)[C@H](CO)NC(=O)[C@H](Cc1ccc(O)cc1)NC(=O)[C@H](CC(=O)O)NC(=O)[C@H](CO)NC(=O)[C@@H](NC(=O)[C@H](Cc1ccccc1)NC(=O)[C@@H](NC(=O)CNC(=O)[C@H](CCC(N)=O)NC(=O)[C@@H](CO)NC(=O)[C@@H](N)Cc1c[nH]cn1)[C@@H](C)O)[C@@H](C)O)C(=O)N[C@@H](CCCNC(=N)N)C(=O)N[C@@H](CCCNC(=N)N)C(=O)N[C@@H](C)C(=O)N[C@@H](CCC(N)=O)C(=O)N[C@@H](CC(=O)O)C(=O)N[C@@H](Cc1ccccc1)C(=O)N[C@H](C(=O)N[C@@H](CCC(N)=O)C(=O)N[C@@H](Cc1c[nH]c2ccccc12)C(=O)N[C@@H](CC(C)C)C(=O)N[C@@H](CC(C)C)C(=O)N[C@@H](CC(N)=O)C(=O)N[C@H](C(=O)NCC(=O)NCC(=O)N1CCC[C@H]1C(=O)N[C@@H](CO)C(=O)N[C@@H](CO)C(=O)NCC(=O)N[C@@H](C)C(=O)N1CCC[C@H]1C(=O)N1CCC[C@H]1C(=O)N1CCC[C@H]1C(=O)N[C@@H](CO)C(N)=O)[C@@H](C)O)C(C)C)C(=O)O,item: AST,"rhesus monkey, female","subcutaneous, 20 µg/kg once daily, 28 days",serum enzyme activity,37.1 ± 5.9 U/L
